Published values collected from several papers.
Values joined by “and” are separate records of one study, mostly repeats; a detail may differ.

SMILES	test	system	conditions	endpoint	result
C=CCN1CCC23c4c5ccc(OC(=O)c6ccc(NC(=O)OC(C)(C)C)cc6)c4OC2C(=O)CCC3(O)C1C5 (stereo not drawn)	–	human plasma	4 h	remaining compound	83.1% and 80.8% and 82.1%
CC(C)[C@@H]1NC(=O)CNC(=O)[C@H](CC(N)=O)NC(=O)[C@H](CCCNC(=N)N)NC(=O)[C@H](Cc2ccc(O)cc2)NC(=O)[C@H](C(C)C)NC(=O)[C@@H](NC(=O)[C@@H](NC(=O)[C@H](CC(N)=O)NC(=O)[C@H](Cc2c[nH]c3ccccc23)NC(=O)[C@H](C)NC(=O)[C@H](Cc2ccccc2)NC(=O)CNC(=O)[C@H](CCCCN)NC(=O)[C@H](Cc2ccccc2)NC(=O)[C@H](Cc2ccccc2)NC(=O)[C@H](CCCCN)NC(=O)OCC2c3ccccc3-c3ccccc32)C(C)C)CSSC[C@@H](C(=O)N[C@@H](Cc2c[nH]cn2)C(=O)N[C@@H](CCCNC(=N)N)C(=O)N[C@@H](CCCNC(=N)N)C(=O)N[C@@H](C)C(=O)N[C@@H](CC(N)=O)C(N)=O)NC(=O)[C@H](C(C)C)NC(=O)[C@H](CCCNC(=N)N)NC1=O	HPLC	mouse mammary gland homogenate	2560 µM, 6.00 h, 37 °C, 50 mg/mL tissue	remaining peptide	68.9% and 75% and 73.7%
C#Cc1c(F)ccc2cc(O)cc(-c3ncc4c(N5CC6CCC(C5)N6C(=O)OC(C)OC(=O)CC5CCCC5)nc(OC[C@@]56CCCN5C[C@H](F)C6)nc4c3F)c12 (stereo partly drawn)	–	simulated gastric fluid	1 µM, 30 min, 37 °C	remaining prodrug	109%
Cc1nnc(-c2ccc(CC(=O)NCCCC[C@H](NC(=O)c3ccc(OCc4ccc(B(O)O)cc4)c(-c4nc5ccccc5c(=O)[nH]4)c3)C(=O)NCC(=O)NCC(=O)NCC(=O)N[C@@H](Cc3ccccc3)C(=O)N[C@@H](Cc3ccccc3)C(=O)O)cc2)nn1	UPLC-MS/MS	human serum	100 µM, 0.083 h, 37 °C	remaining compound	93.2% and 102%
C=CCN1CCC23c4c5ccc(OC(=O)c6ccc(NCc7cn(CCCCCCCCCCCC)nn7)cc6)c4OC2C(=O)CCC3(O)C1C5 (stereo not drawn)	–	rat plasma	5 µM, 2 h, 37 °C	remaining compound	0%
CC[C@H](C)[C@H](NC(=O)[C@@H](NC(=O)[C@H](CCCCN)NC(=O)[C@@H](N)[C@@H](C)O)C(C)C)C(=O)N[C@@H](CC(C)C)C(=O)N[C@@H](Cc1c[nH]cn1)C(N)=O	LC-MS	pronase digest	200 µM, 10 min, pH 7.5, 37 °C, added: pronase 2.5 µg/mL	remaining intact peptide	83%
C#Cc1c(F)ccc2cc(O)cc(-c3ncc4c(N5CC6CCC(C5)N6C(=O)OC(C)OC(=O)C5CCCC5)nc(OC[C@@]56CCCN5C[C@H](F)C6)nc4c3F)c12 (stereo partly drawn)	–	simulated gastric fluid	1 µM, 30 min, 37 °C	remaining prodrug	96.1%
CC[C@H](C)[C@H](NC(=O)[C@@H](NC(=O)[C@H](CCCCN)NC(=O)[C@@H](NC(=O)CNC(=O)[C@@H](N)CCCNC(=N)N)[C@@H](C)O)C(C)C)C(=O)N[C@@H](CC(C)C)C(=O)N[C@@H](Cc1c[nH]cn1)C(=O)N[C@@H](CC(C)C)C(N)=O	LC-MS	pronase digest	200 µM, 2 h, pH 7.5, 37 °C, added: pronase 2.5 µg/mL	remaining intact peptide	0%
C[C@H](NC(=O)CNC(=O)[C@@H]1CCCN1C(=O)[C@H](CO)NC(=O)CNC(=O)[C@H](CO)NC(=O)[C@H](C)NC(=O)[C@H](CC(N)=O)NC(=O)[C@H](C)NC(=O)[C@H](CO)NC(=O)[C@H](C)NC(=O)[C@H](CO)NC(=O)[C@@H]1CCCN1C(=O)[C@H](Cc1ccccc1)NC(=O)[C@H](C)NC(=O)[C@H](CO)NC(=O)[C@@H]1CCCN1C(=O)[C@H](Cc1ccccc1)NC(=O)[C@@H](NC(=O)[C@H](CC(=O)O)NC(=O)[C@@H](N)CO)[C@@H](C)O)C(=O)N[C@@H](CCCNC(=N)N)C(=O)N[C@@H](CO)C(=O)O	–	50% mouse plasma	40 min	remaining peptide	1.02%

A few entries again:
SMILES	test	system	conditions	endpoint	result
C=CCN1CCC23c4c5ccc(OC(=O)c6ccc(NC(=O)OC(C)(C)C)cc6)c4OC2C(=O)CCC3(O)C1C5 (stereo not drawn)	–	human plasma	4 h	remaining compound	83.1% and 80.8% and 82.1%
